# Results from different studies.
# Each numbered part is a random draw from the data of one study; scales do not carry over between parts. Values joined by “and” are separate records of one study, mostly repeats; a detail may differ.

# Sample 1
# Target: DNA polymerase theta, ATPase domain (POLQ, Homo sapiens, UniProt O75417)
# UniProt O75417, sequence (whole entry, unmodified, looked up): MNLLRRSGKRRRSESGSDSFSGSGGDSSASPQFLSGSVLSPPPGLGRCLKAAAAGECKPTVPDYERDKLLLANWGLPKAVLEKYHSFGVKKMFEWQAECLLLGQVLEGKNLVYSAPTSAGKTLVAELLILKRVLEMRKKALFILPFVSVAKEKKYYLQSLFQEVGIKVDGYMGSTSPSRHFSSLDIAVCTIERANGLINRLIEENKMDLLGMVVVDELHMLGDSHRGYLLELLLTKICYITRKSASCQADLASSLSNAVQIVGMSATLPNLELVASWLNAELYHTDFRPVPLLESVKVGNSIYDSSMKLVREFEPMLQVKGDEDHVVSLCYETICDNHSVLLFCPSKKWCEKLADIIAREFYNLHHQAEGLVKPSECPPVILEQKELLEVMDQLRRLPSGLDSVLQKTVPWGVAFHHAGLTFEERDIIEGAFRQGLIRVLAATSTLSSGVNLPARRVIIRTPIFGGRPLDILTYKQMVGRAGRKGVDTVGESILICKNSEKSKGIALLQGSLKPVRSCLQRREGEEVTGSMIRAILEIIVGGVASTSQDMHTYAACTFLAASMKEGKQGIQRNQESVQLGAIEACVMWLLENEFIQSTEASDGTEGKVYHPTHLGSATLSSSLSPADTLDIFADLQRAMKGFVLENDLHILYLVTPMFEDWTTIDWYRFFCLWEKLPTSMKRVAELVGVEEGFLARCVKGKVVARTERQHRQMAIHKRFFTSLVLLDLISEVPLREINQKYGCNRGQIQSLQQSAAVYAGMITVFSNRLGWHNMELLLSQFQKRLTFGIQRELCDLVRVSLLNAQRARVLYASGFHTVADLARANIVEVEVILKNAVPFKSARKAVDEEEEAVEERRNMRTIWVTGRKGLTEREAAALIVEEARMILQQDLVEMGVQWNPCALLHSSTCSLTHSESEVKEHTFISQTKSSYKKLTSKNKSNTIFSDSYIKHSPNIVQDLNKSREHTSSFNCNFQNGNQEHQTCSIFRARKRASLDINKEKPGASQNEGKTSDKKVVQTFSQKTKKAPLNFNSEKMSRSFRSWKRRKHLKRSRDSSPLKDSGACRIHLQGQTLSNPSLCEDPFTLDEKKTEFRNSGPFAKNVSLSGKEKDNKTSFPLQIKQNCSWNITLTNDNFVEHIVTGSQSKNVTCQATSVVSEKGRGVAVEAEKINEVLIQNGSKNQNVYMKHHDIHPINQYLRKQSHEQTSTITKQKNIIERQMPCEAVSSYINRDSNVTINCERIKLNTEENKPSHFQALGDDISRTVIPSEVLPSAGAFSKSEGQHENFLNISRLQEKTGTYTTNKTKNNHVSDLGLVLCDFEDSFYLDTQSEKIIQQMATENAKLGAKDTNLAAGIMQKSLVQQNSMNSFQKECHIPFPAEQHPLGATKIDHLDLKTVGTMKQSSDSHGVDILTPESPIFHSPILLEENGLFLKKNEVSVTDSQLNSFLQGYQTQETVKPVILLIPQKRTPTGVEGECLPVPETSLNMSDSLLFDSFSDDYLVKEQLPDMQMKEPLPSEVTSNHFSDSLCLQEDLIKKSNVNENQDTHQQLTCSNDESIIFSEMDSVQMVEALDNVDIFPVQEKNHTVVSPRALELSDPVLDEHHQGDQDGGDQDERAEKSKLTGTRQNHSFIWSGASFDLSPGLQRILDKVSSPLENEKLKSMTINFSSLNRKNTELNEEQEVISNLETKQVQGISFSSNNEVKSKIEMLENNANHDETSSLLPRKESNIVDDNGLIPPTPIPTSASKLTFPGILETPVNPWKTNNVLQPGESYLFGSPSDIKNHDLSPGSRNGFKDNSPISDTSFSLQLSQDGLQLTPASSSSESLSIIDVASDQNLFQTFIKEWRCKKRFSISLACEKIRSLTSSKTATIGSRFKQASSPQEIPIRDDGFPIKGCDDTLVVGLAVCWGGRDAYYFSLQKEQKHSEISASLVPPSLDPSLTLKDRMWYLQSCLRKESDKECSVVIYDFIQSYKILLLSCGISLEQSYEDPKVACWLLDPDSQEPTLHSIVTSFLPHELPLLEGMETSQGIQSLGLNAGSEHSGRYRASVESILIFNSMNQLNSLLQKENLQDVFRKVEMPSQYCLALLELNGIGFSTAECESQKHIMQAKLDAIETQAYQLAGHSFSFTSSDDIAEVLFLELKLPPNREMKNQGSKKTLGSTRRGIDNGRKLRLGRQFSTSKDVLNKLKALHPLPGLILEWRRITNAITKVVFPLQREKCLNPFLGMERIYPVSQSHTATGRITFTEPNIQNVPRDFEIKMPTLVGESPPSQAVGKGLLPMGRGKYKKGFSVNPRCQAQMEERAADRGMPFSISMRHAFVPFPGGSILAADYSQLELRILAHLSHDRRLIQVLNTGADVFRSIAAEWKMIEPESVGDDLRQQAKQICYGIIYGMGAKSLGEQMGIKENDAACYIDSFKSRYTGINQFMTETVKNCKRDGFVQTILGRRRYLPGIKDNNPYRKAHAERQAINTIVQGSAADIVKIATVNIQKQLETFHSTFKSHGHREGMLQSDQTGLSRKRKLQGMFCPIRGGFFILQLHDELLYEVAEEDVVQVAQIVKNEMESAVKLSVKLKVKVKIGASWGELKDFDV
# Read-out: enzyme activity
# Action: inhibitor
# Tested at: 77 µM
# Reference: untreated
SMILES,remaining activity
COc1ccc(/C=C/C(=O)Nc2ccccc2C(=O)O)cc1OC,88% and 96.8%
Oc1ccc(C2CNCc3sccc32)cc1O (stereo not shown),104%
CCCCCCCC/C=C\CCCCCCCC(=O)NCCc1ccc(O)c(O)c1,108%
Cc1c(Cn2c(C)nc3c(C(=O)O)cc(N4CCOCC4)cc32)cccc1C(F)(F)F,103%
Nc1ncnc2c1ncn2[C@@H]1O[C@H](COP(=O)(O)OP(=O)(O)OP(=O)(O)OP(=O)(O)OC[C@H]2O[C@@H](n3cnc4c(N)ncnc43)[C@H](O)[C@@H]2O)[C@@H](O)[C@H]1O,99.2%
CCOC(=O)C1=C(N)Oc2ccc(Br)cc2[C@H]1[C@H](C#N)C(=O)OCC,99%

# Sample 2
# Cell line: mouse MPNST tumor cells
# Method: high-content immunofluorescence imaging
# Item: nuclear SOX9
# Tested at: 10 µM
# Time: 12 h
# Notes: mean of 2 replicates
# Reference: DMSO control
# Reading: higher = more nuclear SOX9
Structure (SMILES),nuclear SOX9 intensity
Cc1ccsc1C(=CCCN1CCC[C@@H](C(=O)O)C1)c1sccc1C,97.5 % of DMSO and 104 % of DMSO
CCCCC#Cc1nc(NC)c2ncn(C3OC(CO)C(O)C3O)c2n1 (stereo not shown),103 % of DMSO
COCCOCOc1cc2ccc(-c3ccc(C(=O)O)cc3)cc2cc1C12CC3CC(CC(C3)C1)C2,113 % of DMSO
Cc1nn(-c2ccccc2)c(C)c1C=NN1CCN(Cc2ccccc2)CC1,100 % of DMSO
CC(C)(C)Nc1nc(Nc2ccc(C(N)=O)cc2)cc(N)c1C#N,153 % of DMSO
CC(C)(C)NC(=O)[C@H]1CC[C@H]2[C@@H]3CC[C@H]4NC(=O)C=C[C@]4(C)[C@H]3CC[C@]12C,98.7 % of DMSO

# Sample 3
# Cell line: normal-adjacent organoid sample G
# Method: CellTiter-Glo
# Tested at: 0.1 µM
# Notes: replicate mean
# Reference: DMSO
Compound,viability [%]
Cc1cc(Nc2nccc(C)n2)cc(-c2cnc([C@@]3(O)CC[C@H](C(=O)O)C(C)(C)C3)s2)c1,107
CCOC(=O)c1cc2cc(-c3cc(C(=O)NCc4ccc(C(=O)O)cc4)nn3C)ccc2[nH]1,92.4
CC(C)(C)OC(=O)N1CCCC1CNC1CCC(c2cc(F)ccc2F)(S(=O)(=O)c2ccc(Cl)cc2)CC1 (stereo not shown),118
CNC(=O)c1ccc(Nc2ncc(C(F)(F)F)c(NCc3nccnc3N(C)S(C)(=O)=O)n2)cc1,84.3
CCS(=O)(=O)c1cc2cc(C[C@@](O)(CC(C)(C)c3ccc(F)cc3C(N)=O)C(F)(F)F)[nH]c2cn1,102
O=C(O)[C@H]1[C@H](Cn2nnc3ccccc3c2=O)CC[C@@H]1C(=O)c1ccc(OCCC2CCOCC2)cc1,140
Cc1nc(Cc2cccc(C(F)(F)F)c2)sc1-c1ccc(C(N)=O)nc1,107
O=C(N[C@H]1CCCCC/C=C\C2C[C@@]2(C(=O)O)NC(=O)[C@@H]2C[C@@H](Oc3ccncc3)CN2C1=O)OC1CCCC1 (stereo partly shown),140
O=C(NCc1ncc(C(F)(F)F)cc1Cl)c1ccc2c(c1)C1(CCS(=O)(=O)CC1)[C@H](C1CC1)N2S(=O)(=O)c1ccc(F)cc1,104
Cc1cc(C)c(-n2ccn3nc(-c4cccnc4)cc23)cc1NC(=O)c1cc(C#N)cc(S(F)(F)(F)(F)F)c1,110
Cc1ccc(-c2cnc([C@@]3(O)CC[C@H](C(=O)O)C(C)(C)C3)s2)cc1Nc1cccc(C(F)(F)F)n1,113
Nc1cnc(N2CCc3cc(S(=O)(=O)Nc4c(F)cc(Cl)cc4F)cc(N4CCCC4=O)c32)nc1,103
CCCCN(CCCC)C(=O)CN1C[C@H](c2cc(OC)c3c(c2)OCO3)[C@@H](C(=O)O)[C@@H]1CC(C)(C)CCC,105
N#Cc1ccc(Nc2ccc3[nH]c(=O)[nH]c3c2)c(Cl)c1,117
Cc1c(NC(=O)c2cc(C(N)=O)nc3cc(F)ccc23)c(C(F)(F)F)nn1Cc1ccc(C(C)(C)C)cc1,98.8
C[C@@H]1CN(c2cc(-c3n[nH]c4ccc(OC5(C)CC5)cc34)ncn2)C[C@H](C)O1,108
O=C(Nc1ccc(-n2nc(-c3cccnc3)cc2C(F)(F)F)cn1)c1ccc(-c2ccccc2)c(F)c1,120
CN(C)C(=O)Cn1cc(-c2nc([C@@](C)(c3ccc(-c4cnc(N)nc4)cc3)C3CC3)no2)cn1,108
COc1cccc(CNC(=O)c2nc3scc(COCc4ccc(C(=O)O)cc4)c3c(=O)[nH]2)c1,113
O=S(=O)(NC1CCC(c2cc(F)ccc2F)(S(=O)(=O)c2ccc(Cl)cc2)CC1)C(F)(F)F (stereo not shown),117
CNCc1ccccc1-c1csc([C@H](C)Nc2nc(C)nc3cc(OC)c(OC)cc23)c1,106

# Sample 4
# Organism: Sarcocystis neurona
# Read-out: parasite growth
# Tested at: 10 µM
# Time: 96 h
SMILES,inhibition [%]
CN(C)CCOc1ccc(/C(=C(/CCCl)c2ccccc2)c2ccccc2)cc1,-15.9
CC(C)NCC(O)c1ccc(NS(C)(=O)=O)cc1 (stereo not shown),-4.6
CC(C(=O)O)c1ccc(-c2ccccc2)c(F)c1 (stereo not shown),-9
CN(C)CCCC1(c2ccc(F)cc2)OCc2cc(C#N)ccc21 (stereo not shown),-6
COc1ccccc1OCC(O)COC(N)=O (stereo not shown),-13.3

# Sample 5
# Target: Beta-1 adrenergic receptor (ADRB1, Homo sapiens, UniProt P08588)
# UniProt P08588, sequence (whole entry, looked up): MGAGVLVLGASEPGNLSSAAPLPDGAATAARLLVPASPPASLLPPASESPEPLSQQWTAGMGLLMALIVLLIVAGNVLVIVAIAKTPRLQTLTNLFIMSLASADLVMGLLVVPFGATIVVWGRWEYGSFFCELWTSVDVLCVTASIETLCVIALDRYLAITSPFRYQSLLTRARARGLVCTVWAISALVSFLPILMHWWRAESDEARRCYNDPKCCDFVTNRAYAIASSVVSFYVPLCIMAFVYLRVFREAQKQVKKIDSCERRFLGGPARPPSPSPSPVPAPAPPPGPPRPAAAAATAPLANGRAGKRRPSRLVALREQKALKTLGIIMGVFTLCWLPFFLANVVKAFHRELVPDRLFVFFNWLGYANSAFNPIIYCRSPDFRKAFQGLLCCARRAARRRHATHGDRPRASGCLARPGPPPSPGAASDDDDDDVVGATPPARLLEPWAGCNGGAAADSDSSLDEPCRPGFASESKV
# Action: antagonist
Compound,IC50
c1cc(N2CCOCC2)ccc1-c1cc(-c2cn[nH]c2)c2cncn2c1,≥ 100 µM
Cc1noc(C)c1-c1cnc(Nc2cccc(C(F)(F)F)c2)c2c1CCO2,≥ 100 µM
COc1cc(CN2CC=C(C)CC2)ccc1OCC(O)CN1CCSCC1 (stereo not shown),≥ 100 µM
Fc1ccc(-c2nnc3ccc(N4CCc5ccccc5CC4)nn23)nc1,≥ 100 µM
COc1ccccc1N1CCN(C(=O)c2ccc3ccccc3n2)CC1,≥ 100 µM

# Repeated from above (sample 2):
Structure (SMILES),nuclear SOX9 intensity
Cc1ccsc1C(=CCCN1CCC[C@@H](C(=O)O)C1)c1sccc1C,97.5 % of DMSO and 104 % of DMSO
CCCCC#Cc1nc(NC)c2ncn(C3OC(CO)C(O)C3O)c2n1 (stereo not shown),103 % of DMSO
COCCOCOc1cc2ccc(-c3ccc(C(=O)O)cc3)cc2cc1C12CC3CC(CC(C3)C1)C2,113 % of DMSO
Cc1nn(-c2ccccc2)c(C)c1C=NN1CCN(Cc2ccccc2)CC1,100 % of DMSO
CC(C)(C)Nc1nc(Nc2ccc(C(N)=O)cc2)cc(N)c1C#N,153 % of DMSO
CC(C)(C)NC(=O)[C@H]1CC[C@H]2[C@@H]3CC[C@H]4NC(=O)C=C[C@]4(C)[C@H]3CC[C@]12C,98.7 % of DMSO
